{"data": "Published values of several laboratories", "note": "Protocols differ between the studies behind these lines."}
{"Compound": "C=CC(=O)N1CC2C(=O)N(CCN(C)C)c3c(c4cc(Cl)c(-c5c(O)cccc5F)nc4n(-c4c(C)ccnc4C(C)C)c3=O)N2CC1C (centres unmarked)", "cells": "NCI-H358", "species": "mouse xenograft", "route": "oral", "dose": "100 mg/kg once daily", "tumour growth inhibition [%]": 112}
{"Compound": "CCCCCc1ccc(S(=O)(=O)N2CC2C(=O)OC)cc1 (centres unmarked)", "species": "mouse, Lewis lung carcinoma", "route": "intraperitoneal", "dose": "15 mg/kg, 16 doses", "time": "day 16", "tumour growth inhibition [%]": 65}
{"Compound": "CC(C)c1ccc(N(C)c2ccc3c(c2)OCC[C@H]3CNc2cnccc2C(=O)O)cc1", "species": "mouse, sample A gastric PDX", "dose": "5 mg/kg", "time": "day 38", "tumour growth inhibition [%]": 43}
{"Compound": "COC(=O)C1CN1S(=O)(=O)c1ccc2cc(C)ccc2c1 (centres unmarked)", "species": "mouse, Lewis lung carcinoma", "route": "ip", "dose": "100 mg/kg", "time": "240 h", "tumour growth inhibition [%]": 9}
{"Compound": "CC1(C)CCC(CN2CCN(c3ccc(C(=O)NS(=O)(=O)c4ccc(NCC5CCOCC5)c([N+](=O)[O-])c4)c(Oc4cnc5[nH]ccc5c4)c3)CC2)=C(c2ccc(Cl)cc2)C1", "species": "mouse Maver1 xenograft", "route": "oral", "dose": "15 mg/kg once daily", "time": "day 14", "tumour growth inhibition [%]": 91}
{"Compound": "CN(C)Cc1nc(Nc2ccc(-c3cnc4cc(F)ccn34)c3c2C(=O)NC3)ccc1C1CCOC1 (centres unmarked)", "species": "mouse EMT6 syngeneic tumour", "route": "oral", "dose": "75 mg/kg once daily", "baseline": "vehicle", "tumour growth inhibition [%]": "~70"}
{"Compound": "CC(C)c1ccccc1[C@@H]1CCCN1C1CC2(CCN(c3ccc(C(=O)NS(=O)(=O)c4ccc(NC[C@H]5CC[C@](C)(O)CC5)c([N+](=O)[O-])c4)c(Oc4cnc5[nH]ccc5c4)c3)CC2)C1", "species": "mouse Toledo xenograft", "route": "oral", "dose": "5 mg/kg once daily", "time": "day 31", "tumour growth inhibition [%]": 60}
{"Compound": "Cc1noc2c1-c1ccccc1C(c1ccc(Cl)cc1)=N[C@H]2CC(N)=O", "species": "mouse, MV4-11 subcutaneous xenograft", "dose": "120 mg/kg", "time": "14 days", "tumour growth inhibition [%]": 112}
{"note": "Excerpt of the above:"}
{"Compound": "CC1(C)CCC(CN2CCN(c3ccc(C(=O)NS(=O)(=O)c4ccc(NCC5CCOCC5)c([N+](=O)[O-])c4)c(Oc4cnc5[nH]ccc5c4)c3)CC2)=C(c2ccc(Cl)cc2)C1", "species": "mouse Maver1 xenograft", "route": "oral", "dose": "15 mg/kg once daily", "time": "day 14", "tumour growth inhibition [%]": 91}
